Published values of several laboratories.
Lines come from different studies, so protocols differ. Several values in a cell are separate wells, animals, samples, runs or records. Numbers after ± are the reported error.
CSTF2: CSTF2 1-107 (Homo sapiens, UniProt P33240)
Sequence of UniProt P33240 (whole entry, looked up): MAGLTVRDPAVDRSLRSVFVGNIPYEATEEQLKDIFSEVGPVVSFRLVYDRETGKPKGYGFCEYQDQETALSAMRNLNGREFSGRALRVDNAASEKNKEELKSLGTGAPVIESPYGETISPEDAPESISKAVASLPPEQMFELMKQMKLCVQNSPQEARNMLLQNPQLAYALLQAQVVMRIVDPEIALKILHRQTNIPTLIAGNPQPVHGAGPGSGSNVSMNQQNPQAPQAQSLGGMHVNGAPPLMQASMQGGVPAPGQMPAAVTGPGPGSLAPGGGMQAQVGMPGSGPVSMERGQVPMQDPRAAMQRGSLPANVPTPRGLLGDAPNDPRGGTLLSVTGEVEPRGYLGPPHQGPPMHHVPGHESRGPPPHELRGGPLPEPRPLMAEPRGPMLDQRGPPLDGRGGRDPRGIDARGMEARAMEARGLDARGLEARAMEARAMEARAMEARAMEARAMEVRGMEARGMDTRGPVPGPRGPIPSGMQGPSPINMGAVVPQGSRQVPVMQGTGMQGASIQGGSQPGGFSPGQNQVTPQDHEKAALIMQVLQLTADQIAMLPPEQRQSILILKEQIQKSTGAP
Sequence of UniProt Q9NZQ7 (whole entry, looked up): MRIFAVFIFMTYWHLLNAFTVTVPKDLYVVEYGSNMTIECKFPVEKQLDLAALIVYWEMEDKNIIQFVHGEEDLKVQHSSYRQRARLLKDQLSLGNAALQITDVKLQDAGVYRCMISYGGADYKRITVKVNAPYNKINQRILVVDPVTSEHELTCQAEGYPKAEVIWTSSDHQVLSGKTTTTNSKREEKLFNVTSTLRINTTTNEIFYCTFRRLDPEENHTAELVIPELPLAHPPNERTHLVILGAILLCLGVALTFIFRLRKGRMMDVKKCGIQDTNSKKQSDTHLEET

Substance = RNA 1 CACCCGUGCAAAAAUGCAGGGGUCUAAAACUGAGCGGAUAACCUCUCUAUGG / RNA 2 GGGUUCGUACCAUAGAGAGGUGAUCCGCUCACCGAGAUCG (crRNA/target DNA; mismatch at position 10); target or system = Cas13d full length assumed R295A/H300A/R849A/H854A (Eubacterium siraeum, UniProt B0MS50); assay = EMSA; setting = together with: EDTA 20 mM; endpoint = binding; value = binds
Substance = AAATGTGGTTGATCCAGTCAACTATTTTG (dsDNA); target or system = mexR 1-142 C30S/C62S (Pseudomonas aeruginosa, UniProt P52003); assay = EMSA; test system = double-stranded DNA, one strand shown; endpoint = binding; value = binds
Substance = ATTAGTTTGTATGCAAACCATT (dsDNA); target or system = MarR-family transcriptional regulator 1-147 R93A (Clostridioides difficile, UniProt A0A9R0BIW1); assay = EMSA; test system = double-stranded DNA, one strand shown; endpoint = binding; value = no binding
Substance = GGGCGGGGGAGACAUCCUUGUCUCGUGCCCGACCCCGCCC (structured RNA); target or system = HNRNPA1 UP1 1-196 (Homo sapiens); assay = ITC; test system = folded RNA; endpoint = binding; value = no binding
Substance = AUUUUAUGUUUCAGGU (ssRNA (simian virus 40); phosphorothioate at nucleotide 13); target or system = CSTF2; assay = NMR PRE; test system = RNA; endpoint = binding; value = binds
Substance = Polymyxin B; test system = mouse; setting = intraperitoneal, 20 mg/kg single dose, day 4; endpoint = survival; value = 100%
Substance = RNA 1 CACCCGUGCAAAAAUGCAGGGGUCUAAAACUGAGCGGAUAACCUCUCUAUGG / RNA 2 CGUACCAUAGAGAGGUUAUCCGCUCACCGA (crRNA/target DNA; crRNA paired with target); target or system = Cas13d full length assumed (Eubacterium siraeum, UniProt B0MS50); assay = cryo-EM; setting = intermediate state; endpoint = binding; value = binds
Substance = heparin sodium; assay = measured: Albuminuria; test system = human healthy Chinese adults; setting = intravenous infusion, 8 IU/kg/h, 5 days; endpoint = subjects with adverse event; value = 0%
Substance = TTTATAAAAAACCAATATATGTCTTGACACATGTAAAAAACGTTGTATAATG (dsDNA); target or system = niaR 1-174 (Streptococcus mutans, UniProt Q8DVX8); assay = EMSA; test system = double-stranded DNA, one strand shown; endpoint = binding; value = binds
Substance = aspterric acid; test system = Arabidopsis thaliana Col-0 seeds; setting = 12.5 µg/mL, seed germination; endpoint = root length; value = 0.01 cm
Substance = nonaarginine; target or system = PorA peptide pore; assay = peptide binding, planar bilayer single-channel recording; setting = pH 7.4, +20 mV, trans side, 150 mM KCl; endpoint = Kd; value = 1.97 ± 0.2 µM
Substance = AUUUUAUGUUUCAGGU (ssRNA); target or system = CSTF2; assay = NMR titration; test system = RNA; endpoint = binding; value = binds
Substance = TGTATTGCACATCGTGTAATATCGCGGTATAGTATTACACACCATGTAATACAGAGATGGC (dsDNA); target or system = higA 1-104 (Proteus vulgaris, UniProt Q7A224); assay = EMSA; test system = double-stranded DNA, one strand shown; setting = 0.5 µM; endpoint = binding; value = binds
Substance = GTCTTTAATAATTAAACTAGTGTCTTGACAGATGTAAACAACAGGTATAAAC (dsDNA); target or system = niaR 1-174 K97R (Streptococcus mutans, UniProt Q8DVX8); assay = EMSA; test system = double-stranded DNA, one strand shown; endpoint = binding; value = binds
Substance = ATCCAGAGTGACGCAGCAATTACCGATGGCTTGTTTGTAATGTAGGGTTCCGTCCGATTGGACACGGTGGCTTAGT (ssDNA); target or system = CD274 19-238 (Homo sapiens, UniProt Q9NZQ7); assay = ELONA; test system = single-stranded DNA; setting = off-target, specificity test; endpoint = binding; value = no binding
Substance = insulin human; assay = measured: CAD; test system = mouse, uninfected, brain; setting = ip, dose not given, together with: insulin; how to read = relative to: PBS-treated; endpoint = mRNA fold change; value = 0.963
Substance = HVLVMSATRR; test system = peptide, C57BL/6J mice, male, blood; setting = subcutaneous osmotic pump, 3 mg/kg/day peptide basis, 8 weeks; endpoint = segmented neutrophils; value = 1% and 8% and 7% and 4%
Substance = GCCGCCCCTCCCGTGTGCTCGCGCCCTGCCTCCGGCACCAAACTGAGTACAGCGTACCCGATTACGCGTACGCCGTACCCAGTTTTTCTTCGAGGACCTAAGCTGGCTCC (dsDNA); target or system = drrR1 full length assumed (Streptomyces coeruleorubidus, UniProt P0DXY9); assay = EMSA; test system = double-stranded DNA, one strand shown; endpoint = binding; value = binds
Substance = hexaarginine; target or system = PorA peptide pore; assay = peptide binding, planar bilayer single-channel recording; setting = pH 7.4, -15 mV, cis side, 150 mM KCl; endpoint = Kd; value = 9.61 ± 1 µM
Substance = TTACCGACAGGTTTCCAAAAGAAACCCGGGATGAA (dsDNA); target or system = nalD full length assumed (Pseudomonas aeruginosa, UniProt Q9HY46); assay = EMSA; test system = double-stranded DNA, one strand shown; endpoint = binding; value = binds
Substance = GGGAGUCGACCGACCAGAAUGAUUGUUGUGUGUAUUGGGUGGCGGUAUGUGCGUCUACAUCUAGACUCAU (XNA; 2'-fluoro pyrimidines); target or system = ALB 25-609 (Homo sapiens, UniProt P02768); assay = pull-down; test system = modified nucleic acid; endpoint = binding; value = binds

Repeated from above:
Substance = TTTATAAAAAACCAATATATGTCTTGACACATGTAAAAAACGTTGTATAATG (dsDNA); target or system = niaR 1-174 (Streptococcus mutans, UniProt Q8DVX8); assay = EMSA; test system = double-stranded DNA, one strand shown; endpoint = binding; value = binds
Substance = aspterric acid; test system = Arabidopsis thaliana Col-0 seeds; setting = 12.5 µg/mL, seed germination; endpoint = root length; value = 0.01 cm
